Measurements collected from several papers.
Parts stem from different laboratories: compare values within a part only. Substitutions count along the parent as printed.

Series 1
Target: RING finger protein unkempt homolog, zinc fingers 1-6, GST-SBP tag (UNK, Homo sapiens, UniProt Q9C0B0, residues 30-357)
Technique: RNA Bind-n-Seq
Molecule type: RNA
Matrix: in vitro
Concentration: not given
Setting: RNA with constant flanks, human and mouse sites, ends assumed
Relative to: input RNA pool
Direction: higher = stronger binding
Construct (chain): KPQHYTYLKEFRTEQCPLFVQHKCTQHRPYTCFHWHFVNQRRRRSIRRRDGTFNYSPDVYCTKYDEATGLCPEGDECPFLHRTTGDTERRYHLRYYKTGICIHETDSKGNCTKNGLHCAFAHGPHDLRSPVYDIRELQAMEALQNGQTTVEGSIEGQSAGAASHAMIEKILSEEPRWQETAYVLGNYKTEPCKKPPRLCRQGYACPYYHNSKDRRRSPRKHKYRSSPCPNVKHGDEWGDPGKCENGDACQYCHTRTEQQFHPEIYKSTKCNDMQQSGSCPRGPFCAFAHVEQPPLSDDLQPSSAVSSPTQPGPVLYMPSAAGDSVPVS
The bound/input enrichment of `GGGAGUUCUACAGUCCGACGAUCAAGGACUCAGGCAGUGAUCUCUCUCACCGUCCCAAGCGACGUCGAUUUCACGAAAGCUACAAUUUCAACAUGAAGUGUCCUACGCCGGGCUGCAACUCUCUAGGACAUCUUACAGGAAAGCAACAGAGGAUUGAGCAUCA` is reported as 0.957 ratio.
For `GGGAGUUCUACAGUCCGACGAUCAAAGCAAUAAAUGUAGAUCUCCAGAGUGACGCUGCUCUGCAGGUGGACAUUUCAGACGCGCUCAGUGAGAGGGAUAGAGUCAAGUUCACCGUUCACACAAAGAGUUCAUUGCCAAAUUUUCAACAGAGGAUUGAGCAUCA`, the bound/input enrichment was 0.13 ratio.
With `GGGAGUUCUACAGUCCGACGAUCUGUUACACACAGGUUAAAGUAGUAAAAUUUUCCUAUAUGUGGACCAUUAAUAACUUCAGUUUUUGUCGAGAGGAAAUGGGUGAAGUGUUAAAAAGUUCAACAUUUUCAUCUGGCCCAAGUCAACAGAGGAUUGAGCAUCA` the bound/input enrichment was 0.479 ratio.
`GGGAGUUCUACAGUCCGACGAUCGAGGAGGGCAAGGAGAUCCUGGUAGGAGAUGUGGGGCAGACUGUGGACGACCCCUACACCACUUUUGUCAAGAUGCUGCCAGACAAGGACUGCCGCUAUGCACUCUAUGAUGCAACCUAUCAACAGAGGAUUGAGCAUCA` has a bound/input enrichment of 0.185 ratio.
For `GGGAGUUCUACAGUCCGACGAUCGCCAUCUGGGGUGUGGUGUGGUAUGUGGGAAGAAGUUCAGAGGAACCGUUGGAAACGACGUUAGGCAUUUUACCUUUUCAGUAACAUUUUAUACAUCUACUUGUCAAUGUAUUUGAGACACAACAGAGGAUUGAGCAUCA`, the bound/input enrichment was 3.06 ratio.
With `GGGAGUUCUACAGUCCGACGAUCUUAGAUGUGACUGUACAGUCCUUUGGAUGGUCUGAUAGAGCAAAGGUAAAAACAGAUGAUAUAGCAAGAAUUUAUCAGCCUAAGCGUUAUGCUUUGUCACCCAAGACAACGAUUACAAUGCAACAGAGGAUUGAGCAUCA` the bound/input enrichment was 0.294 ratio.
`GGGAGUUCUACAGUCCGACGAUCUUCACCAAAAAAGACUCAGUUCCACCCAGCCACAAGAGGAUAAAAAGCCUUUUUAAACGCAGUAUUGCUGUAAACUGGACAGAACCAUUAAGAACCUAUUGAGUGGACAUUCUUGGUGAACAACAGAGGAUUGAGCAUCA` gave a bound/input enrichment of 0.098 ratio.
The bound/input enrichment of `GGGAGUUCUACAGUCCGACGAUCUUGGAGCAGCCAAUAGUCGUGCAGAGCGUGGGCACUGAUGGCCGUGUCUUCCAGUUCCUGGUGCUGCAGUUGAACACCACAGAUCUGGCUUCUAGCGAGGGCGUCAAGAAUUUGGUAUGGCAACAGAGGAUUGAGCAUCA` is reported as 0.218 ratio.

Series 2
Target: ABI1, truncated, D143A, DHFR fusion (Arabidopsis thaliana)
Technique: DHFR PCA, deep sequencing
Matrix: yeast
Setting: methotrexate growth selection, single substitutions
With: (+)-ABA 2500 µM
Relative to: wild-type fitted maximum
Direction: higher = stronger binding
Starting sequence: PYL1, truncated, DHFR fusion (Arabidopsis thaliana); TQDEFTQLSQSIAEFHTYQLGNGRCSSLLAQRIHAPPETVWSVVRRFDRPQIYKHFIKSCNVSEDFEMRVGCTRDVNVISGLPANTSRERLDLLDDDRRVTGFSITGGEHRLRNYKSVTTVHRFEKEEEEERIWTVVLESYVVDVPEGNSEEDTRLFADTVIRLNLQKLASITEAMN
`L93P` — result for “relative binding score”: 22.1%.
For `K54G`, “relative binding score” read 8.72%.
`E127F`: “relative binding score” 99.8%.
`C72N`: “relative binding score” 94.4%.
Under “relative binding score”, `Q51I` is recorded as 84.5%.
`A30N`: “relative binding score” 98.5%.
`R69F`: “relative binding score” 90.1%.
Under “relative binding score”, `A13G` is recorded as 104%.
For `D153S`, “relative binding score” read 78%.
Under “relative binding score”, `G23Y` is recorded as 90.3%.
`N77M`: “relative binding score” 99.3%.
Under “relative binding score”, `G102S` is recorded as 104%.
For `T120V`, “relative binding score” read 36%.
Under “relative binding score”, `E151L` is recorded as 94%.
For `I52R`, “relative binding score” read 97.8%.

Series 3
Target: RNA binding protein fox-1 homolog 2, RRM domain, GST-SBP tag (RBFOX2, Homo sapiens, UniProt O43251-10, residues 100-194)
Technique: RNA Bind-n-Seq
Molecule type: RNA
Matrix: in vitro
Concentration: 365 nM
Setting: natural RNA segment, single round, ends assumed
Relative to: no-protein control
Direction: higher = stronger binding
Residues (chain): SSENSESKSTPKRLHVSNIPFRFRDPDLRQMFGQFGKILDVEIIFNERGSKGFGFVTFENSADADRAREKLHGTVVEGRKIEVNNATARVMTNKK
For `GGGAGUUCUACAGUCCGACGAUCGGCUGUUACAAUCAAGUCGUUGCAGGGUUUGGAUCAGCUGUAAGUUAGGUAUGCCUACCAAACAUCCAAAGGUAGACGUGGAGACAUUUUAAUACUACAAAACUAGGAAAUGGAAUUCUCGGGUGCCAA`, “RBNS enrichment (R)” read 0.33.
`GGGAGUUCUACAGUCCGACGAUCUCUCAAUCCAUUUUUAGGUAGAAAGGGUCUUAAGUGAUACUUAUGCUUUGGCAUCCAGAGCAUAAGAGAUGAAUGCAGCUACCCUGUGCCAUCCUACUAUAAUAAAUUUUUGGAAUUCUCGGGUGCCAA`: “RBNS enrichment (R)” 0.701.
`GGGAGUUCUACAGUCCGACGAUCCCCUUCAGCGCUAGACCAUCAAGUUGGCAUAAAGAAAAAAAAAUGGGUUUGGGCCCUCAGAACCCUGCCCUGCAUCUUUGUACAGCAUCUGUGCCAUGGAUUUUGUUUUCUGGAAUUCUCGGGUGCCAA` — result for “RBNS enrichment (R)”: 0.549.
Under “RBNS enrichment (R)”, `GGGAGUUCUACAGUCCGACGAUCGAGAUUUUUAACGUAACUAUUAACACAGUUUUAACAUAAGUUAUCCCACUGGGUUUAAGAGCAUCUUGAAUGUAUAAUCCUUUUUGUAACCCAGGUUGGUUUCUACUUUUUGGAAUUCUCGGGUGCCAA` is recorded as 0.754.
`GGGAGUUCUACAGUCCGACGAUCUAGAAACACAAAAUAUUUGAUUUCCUGUGUCGGCUCAGCUACAAGAAACACAACUGUUAUCUUGACAGAGGAAGAGAGGAAUCCAAGAAAAAUGCAUGUGGAGAAUUAAAUGGAAUUCUCGGGUGCCAA` — result for “RBNS enrichment (R)”: 12.5.
For `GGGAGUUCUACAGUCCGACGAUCCAUUCCAGAGAAAUGGCCAGACUUGCCCCUACCCUUUUGCCCCUGGUGUAGCUGCCUCACAUGAGGUUAUUGCAAGAGUUCCCCUUGCAAUACCCUUUGUGCCCUCAAGAUGGAAUUCUCGGGUGCCAA`, “RBNS enrichment (R)” read 0.543.
Under “RBNS enrichment (R)”, `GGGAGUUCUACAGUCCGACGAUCGCCAUGAGCAUGUACAACCUCUGGAGCUAGAAGCUCCUCAGGAAAGCCAGUUCUCCAAGUUCUUAACCUGUGGCACUGAAAGGAAUGUUGAGUUACCUCUUCAUGUUUUAUGGAAUUCUCGGGUGCCAA` is recorded as 0.413.
Under “RBNS enrichment (R)”, `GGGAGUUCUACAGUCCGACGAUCUCUCAGGUCAGUAGGCGCAGAAACGCCUCAUGAUGAAGAUUCUUGAGCCCCAUUUCCAAGACCCCUCACAUCCAAUCCUGUCCUGUAACAUCCAUCAAGGAUUUCCAUAGUGGAAUUCUCGGGUGCCAA` is recorded as 0.372.

Series 4
Target: CCNA1, cyclin fold, Cln2 fusion (human)
Technique: yeast growth competition, sequencing
Matrix: yeast
Setting: weak parent motif
Relative to: not given
Direction: higher = stronger binding
Starting sequence: E2F2 docking peptide (human); LPAKRKLDLEGIG
For `LPAARKLDLEGIG [K4A]`, “normalised enrichment score” read 0.728.
Under “normalised enrichment score”, `LPAKAKADLEGIG [R5A L7A]` is recorded as 0.361.
`LPAKKKLDFEGIG [R5K L9F]` — result for “normalised enrichment score”: 0.987.
Under “normalised enrichment score”, `LAAKRKLDLEGIG [P2A]` is recorded as 0.21.
Under “normalised enrichment score”, `APAKRKLDLEGIG [L1A]` is recorded as 0.335.
Under “normalised enrichment score”, `LPAKRKLDLAGIG [E10A]` is recorded as 0.329.
Under “normalised enrichment score”, `LPAKRKADLEGIG [L7A]` is recorded as 0.346.
`LPAKRKLDLEGAG [I12A]` — result for “normalised enrichment score”: 0.393.
`LPAKKKLDLEGIG [R5K]` — result for “normalised enrichment score”: 0.116.

Repeated from above (series 4):
Under “normalised enrichment score”, `LPAKRKLDLAGIG [E10A]` is recorded as 0.329.
Under “normalised enrichment score”, `APAKRKLDLEGIG [L1A]` is recorded as 0.335.
